Published values collected from several papers.
Numbers after ± are the reported error.

Structure (SMILES) = O=C([O-])CN1CCN(CC(=O)[O-])CCN(CC(=O)NCCc2ccc3c(c2)C2C=CCC2C(c2cc4c(cc2Br)OCO4)N3)CCN(CC(=O)[O-])CC1.[111In+3] (stereo not drawn); test system = mice with Hec50 tumour xenograft, brain; conditions = 2 h, with: G-1 5 µg blocking; tissue uptake = 0.11 ± 0.06 %ID/g
Structure (SMILES) = N=C(N)NCCC[C@@H]1NC(=O)[C@H](CCCCNC(=O)CON=C[C@H](F)[C@@H](O)[C@H](O)[C@H](O)CO)NC(=O)[C@@H](Cc2ccc(O)cc2)NC(=O)[C@H](CC(=O)O)NC(=O)CNC1=O [fluorine-18 labelled]; test system = nude mice U-87 MG tumour, stomach; conditions = intravenous, 2 h; tissue uptake = 0.46 ± 0.52 %ID/g
Structure (SMILES) = CCCC[C@H](NC(=O)CNC(=O)CNC(=O)CN1CCN(CC(=O)O)CCN(CC(=O)O)CC1)C(=O)N[C@H]1CC(=O)NCCCC[C@@H](C(N)=O)NC(=O)[C@H](Cc2c[nH]c3ccccc23)NC(=O)[C@H](CCCNC(=N)N)NC(=O)[C@@H](Cc2ccccc2)NC(=O)[C@H](Cc2c[nH]cn2)NC1=O [gallium-67 labelled]; test system = female C57 mice, B16/F1 melanoma, spleen; conditions = intravenous, 0.037 MBq, 4 h; tissue uptake = 0.57 ± 0.14 %ID/g
Structure (SMILES) = O=C([O-])c1cccc(CN(CCN(Cc2cn(Cc3ccccc3)nn2)Cc2cccc(C(=O)[O-])n2)Cc2cn(Cc3ccccc3)nn2)n1.[64Cu+2]; test system = healthy athymic nude mice, liver; conditions = intravenous, 24 h; tissue uptake = 8.14 %ID/g
Structure (SMILES) = CCCC[C@@H]1NC(=O)[C@@H](NC(=O)[C@H](CCC(=O)O)NC(=O)CNC(=O)CN2CCN(CC(=O)O)CCN(CC(=O)O)CCN(CC(=O)O)CC2)CCCCNC(=O)C[C@@H](C(N)=O)NC(=O)[C@H](C(C)C)NC(=O)[C@@H]2CCCN2C(=O)[C@H](CCCNC(=N)N)NC(=O)CNC(=O)[C@H](Cc2c[nH]c3ccccc23)NC(=O)[C@H](CCCNC(=N)N)NC(=O)[C@@H](Cc2ccccc2)NC(=O)[C@H](Cc2c[nH]cn2)NC(=O)[C@H](CCC(=O)O)NC1=O [gallium-67 labelled]; test system = normal C57 mice, kidneys; conditions = intravenous, 0.037 MBq/mouse, 4 h; tissue uptake = 32 ± 5.35 %ID/g
Structure (SMILES) = CCCC[C@H](NC(=O)CNC(=O)CNC(=O)CN1CCN(CC(=O)O)CCN(CC(=O)O)CCN(CC(=O)O)CC1)C(=O)N[C@H]1CC(=O)NCCCC[C@@H](C(N)=O)NC(=O)[C@H](Cc2c[nH]c3ccccc23)NC(=O)[C@H](CCCNC(=N)N)NC(=O)[C@@H](Cc2ccccc2)NC(=O)[C@H](Cc2c[nH]cn2)NC1=O [gallium-67 labelled]; test system = female C57 mice, B16/F1 melanoma, muscle; conditions = intravenous, 0.037 MBq, 0.5 h; tissue uptake = 0.75 ± 0.2 %ID/g
Structure (SMILES) = CCCC[C@H](NC(=O)CN1CCC(NC(=O)CN2CCN(CC(=O)O)CCN(CC(=O)O)CCN(CC(=O)O)CC2)CC1)C(=O)N[C@H]1CC(=O)NCCCC[C@@H](C(N)=O)NC(=O)[C@H](Cc2c[nH]c3ccccc23)NC(=O)[C@H](CCCNC(=N)N)NC(=O)[C@@H](Cc2ccccc2)NC(=O)[C@H](Cc2c[nH]cn2)NC1=O [gallium-68 labelled]; test system = C57BL/6J mice male B16-F10 tumour, fat; conditions = 1 h post injection, unblocked; tissue uptake = 0.2 ± 0.1 %ID/g
Structure (SMILES) = CN1C(=O)[C@@H](Cc2ccc(O)c(I)c2)NC(=O)CNC(=O)[C@H](Cc2ccc3ccccc3c2)NC(=O)[C@H](CCCNC(=N)N)NC(=O)[C@H]1CCCNC(=O)c1ccc(CNC(=O)CN2CCN(CC(=O)O)CCN(CC(=O)O)CCN(CC(=O)O)CC2)cc1 [lutetium-177 labelled]; test = measured: 177Lu radioactivity; test system = female CB-17 SCID mice, Daudi xenograft, blood; conditions = intravenous, 0.16 nmol per mouse, 96 h; tissue uptake = 0.01 ± 0.001 %ID/g
Structure (SMILES) = O=C(NCC1OC2CCC=CCCC2O1)c1ccc([18F])nc1 (stereo not drawn); test system = female BALB/c nude mice, bone; conditions = intravenous, 60 min; tissue uptake = 0.9 ± 0.2 %ID/g

For quick reference, copied from above:
Structure (SMILES) = CN1C(=O)[C@@H](Cc2ccc(O)c(I)c2)NC(=O)CNC(=O)[C@H](Cc2ccc3ccccc3c2)NC(=O)[C@H](CCCNC(=N)N)NC(=O)[C@H]1CCCNC(=O)c1ccc(CNC(=O)CN2CCN(CC(=O)O)CCN(CC(=O)O)CCN(CC(=O)O)CC2)cc1 [lutetium-177 labelled]; test = measured: 177Lu radioactivity; test system = female CB-17 SCID mice, Daudi xenograft, blood; conditions = intravenous, 0.16 nmol per mouse, 96 h; tissue uptake = 0.01 ± 0.001 %ID/g
